Published values gathered from unrelated publications.
Each numbered part is a random draw from the data of one study; scales do not carry over between parts.

Set 1
Target: Myc proto-oncogene protein, bHLH-zipper, MAX partner unstated (MYC, Homo sapiens, UniProt P01106, residues 368-449)
Sequence of UniProt P01106 (368-449, looked up): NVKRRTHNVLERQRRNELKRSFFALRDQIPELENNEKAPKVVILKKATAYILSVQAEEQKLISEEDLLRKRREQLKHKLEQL
Technique: protein-binding microarray
Form: double-stranded DNA, one strand shown
Medium: in vitro
Concentration: not given
Setting: k-mer, scored over probes, only values ≥0.25
Reading: higher = stronger binding
| Strand | E-score |
| --- | --- |
| CTCATGGA | 0.347 |
| GCGCATGA | 0.359 |
| GCACGCCC | 0.274 |
| CGCATGCG | 0.469 |
| GCCGCACA | 0.282 |
| AAATGTGC | 0.299 |
| AGTGTGCG | 0.273 |
| CATGGGAG | 0.275 |
| GCCCCTCC | 0.379 |
| ACTGCACG | 0.307 |
| ACACCACG | 0.391 |
| GCGCGTGA | 0.349 |
| TCGTGGCA | 0.342 |
| GGCACGCC | 0.338 |
| CTACCCAC | 0.297 |
| CCACAAGG | 0.281 |

Set 2
Target: Histone acetyltransferase KAT6A, winged helix 2, GST fusion (KAT6A, Homo sapiens, UniProt Q92794, residues 85-181)
Technique: protein binding microarray
Form: double-stranded DNA, one strand shown
Medium: in vitro
Concentration: not given
Setting: 8-mer, flanks averaged, mean of 2 arrays, mostly near background
Relative to: not given
Reading: higher = stronger binding
Construct (chain): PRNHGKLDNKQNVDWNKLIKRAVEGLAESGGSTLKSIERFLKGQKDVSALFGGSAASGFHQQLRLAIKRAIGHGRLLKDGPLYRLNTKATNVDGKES
| Strand | E-score |
| --- | --- |
| AGGATGAG | -0.219 |
| ATCGATCG | -0.11 |
| GTTACAAA | 0.0559 |
| CCTTAGCC | 0.0386 |
| AGGGCATC | -0.0131 |
| ATTGGGGG | -0.118 |
| AGAAGTGA | -0.156 |
| GCTCGGAC | 0.0805 |
| AAACAAGC | -0.00364 |
| ACTAGCAG | -0.0194 |
| GATCTCCC | -0.0755 |
| ATAGGACA | -0.278 |
| CATATTCG | -0.0211 |
| CAATTCAG | -0.015 |
| ATCTAGAC | -0.0502 |
| AAGTCCGA | -0.171 |
| ACACGTAG | -0.275 |
| GACTCCCA | -0.168 |
| ACGATCGA | 0.0387 |
| ATTGTGCA | -0.0879 |
| ATTCGTTG | 0.065 |
| ATCAAGAG | -0.0723 |
| GACTATCA | -0.162 |
| AGTTACGG | -0.0209 |
| ACCCACCT | -0.134 |

Set 3
Target: Sal-like protein 4, full length isoform B (SALL4, Homo sapiens, UniProt Q9UJQ4-2, residues 1-616)
Technique: universal PBM
Form: double-stranded DNA, one strand shown
Medium: in vitro
Concentration: not given
Setting: 8-mer, flanks averaged, mean of replicates
Reading: higher = stronger binding
Residues (chain): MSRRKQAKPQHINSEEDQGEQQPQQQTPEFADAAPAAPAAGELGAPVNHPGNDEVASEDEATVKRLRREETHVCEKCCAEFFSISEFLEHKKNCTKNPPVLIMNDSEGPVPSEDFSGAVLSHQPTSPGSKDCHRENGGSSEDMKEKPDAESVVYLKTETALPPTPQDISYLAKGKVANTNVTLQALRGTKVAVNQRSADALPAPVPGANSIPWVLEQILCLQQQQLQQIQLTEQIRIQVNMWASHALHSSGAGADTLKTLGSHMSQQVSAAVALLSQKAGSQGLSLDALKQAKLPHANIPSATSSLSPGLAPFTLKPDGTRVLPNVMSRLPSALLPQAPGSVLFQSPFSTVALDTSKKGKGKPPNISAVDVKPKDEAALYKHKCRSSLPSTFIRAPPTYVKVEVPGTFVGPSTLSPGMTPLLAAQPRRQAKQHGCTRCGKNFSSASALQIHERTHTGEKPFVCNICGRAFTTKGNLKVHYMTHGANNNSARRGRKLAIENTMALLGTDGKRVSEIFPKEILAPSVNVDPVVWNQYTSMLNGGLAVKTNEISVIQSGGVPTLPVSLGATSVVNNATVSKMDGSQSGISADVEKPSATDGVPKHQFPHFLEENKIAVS
| Strand | E-score |
| --- | --- |
| AAAGTAAT | 0.306 |
| CAGACTAC | -0.147 |
| TCATACAA | 0.278 |
| CGTCGGGC | -0.319 |
| ACAGGACT | -0.102 |
| CCAAACAC | -0.0214 |
| GTACATCA | 0.159 |
| GTCGCACA | -0.118 |
| GTCTGAAA | -0.0828 |
| ACAGGAAT | 0.206 |
| CCATGGCG | -0.0548 |
| ACCGTAAT | 0.159 |
| AGATCGCC | -0.228 |
| ACTCCCAC | -0.152 |
| GTTCTCGA | -0.0175 |
| CTTAGCAC | -0.0548 |
| AGACAGTG | -0.0757 |
| AGCCGTAG | -0.234 |
| GGTTCGAC | -0.151 |
| ATCCCCTG | -0.219 |
| AACGGCGC | -0.369 |
| GCGCCAAA | -0.0418 |
| CCCCTCGC | -0.204 |
| CAAACTCC | -0.0843 |
| ATAGTAGG | 0.106 |

Set 4
Target: Interferon regulatory factor 7, full length, phosphomimetic (IRF7, Homo sapiens, UniProt Q92985, residues 1-503, S471D/S472D/S475D/S476D/S477D/S483D/S484D/S487D)
Technique: protein-binding microarray
Form: double-stranded DNA, one strand shown
Medium: in vitro
Concentration: 2200 nM top
Setting: 60-bp whole probe
Together with: salmon DNA 0.4 mg/ml
Relative to: random background probes
Reading: higher = stronger binding
Constant ends, left off below: GCCTAGCAC … GTCTTGATTCGCTTGACGCTGCTG
Residues (chain): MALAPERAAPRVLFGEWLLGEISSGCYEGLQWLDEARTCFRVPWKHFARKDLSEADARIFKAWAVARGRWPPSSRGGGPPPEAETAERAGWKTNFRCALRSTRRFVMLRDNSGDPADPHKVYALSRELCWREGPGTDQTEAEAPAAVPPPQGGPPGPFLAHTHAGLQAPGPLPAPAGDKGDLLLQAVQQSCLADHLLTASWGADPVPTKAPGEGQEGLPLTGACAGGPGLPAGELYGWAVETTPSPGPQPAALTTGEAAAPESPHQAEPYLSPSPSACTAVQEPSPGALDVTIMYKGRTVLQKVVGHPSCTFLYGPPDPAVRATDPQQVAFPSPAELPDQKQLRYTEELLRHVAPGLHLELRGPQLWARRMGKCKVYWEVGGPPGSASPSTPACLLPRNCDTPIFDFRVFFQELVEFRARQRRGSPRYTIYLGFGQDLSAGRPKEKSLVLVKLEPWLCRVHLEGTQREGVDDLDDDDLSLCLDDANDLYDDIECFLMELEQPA
| Strand | fitted relative affinity |
| --- | --- |
| GACGAGCTGAGTTTCGAGACGTGCTAG | 2.09 z-score |
| TCATTACTTTCTATCTCACTGTGCTAG | 4.26 z-score |
| TCACATTTTGGTTTTCCACTGTGCTAG | 2.94 z-score |
| TTAGAACTGAGTCACGATTAGTGCTAG | -0.766 z-score |
| TTAGGACGGGGGTTTCGGTTAGTGCTA | 4.19 z-score |
| TTAGAACTGAGTCTCGATCAGTGCTAG | -0.505 z-score |
| TTAGGTATCGGGTATGGGTTAGTGCTA | 0.272 z-score |
| AGAGCCTGGGGATGCAGAGAGTGCTAG | -0.991 z-score |
| TTAGATCTCAGTATCGATTAGTGCTAG | 0.105 z-score |
| GGATGTTGCAAATATTGCTAGGTGCTA | 0.0352 z-score |
| TTAGATTTCAGACTGGATTTGTGCTAG | -0.000385 z-score |
| GACGATTTCGGGTTTCAAGACGTGCTA | 4.43 z-score |
| TTAAGACTGCTTCTCCTTTAGTGCTAG | 0.615 z-score |
| AGGATCCAGCCTGCAACCTCGTGCTAG | -0.11 z-score |
| TACTGTGTGCATCTATCTTAGTGCTAG | 0.729 z-score |
| TTAGGACGGGACTTTCGGTTAGTGCTA | 5.13 z-score |
| AACGGTATCGGTATCGGGACGTGCTAG | 0.566 z-score |
| TCCAGGCTGGTCTCTAACTCAGTGCTA | -0.274 z-score |
| TCATCTTCCCCTCTCTTACTGTGCTAG | 2.68 z-score |
| GAAGGTATCCTTTTCCTGACGTGCTAG | 1.02 z-score |
| GACCGTATCCTACTGCTGACGTGCTAG | 1.12 z-score |
| GACGGTATCGACTATCGCGACGTGCTA | 0.0103 z-score |
| TTAAGACTGCTTTTCCTTTAGTGCTAG | 1.37 z-score |
| GACGGTCTCCTCTTCCTGACGTGCTAG | 0.962 z-score |
| CCAGTTTTCTTTTCATTACTGTGCTAG | 6.01 z-score |

Set 5
Target: Phosphate system positive regulatory protein PHO4, full length, GST-tagged (PHO4, Saccharomyces cerevisiae, UniProt P07270, residues 1-312)
Technique: competition protein-binding microarray
Form: double-stranded DNA, one strand shown
Medium: in vitro
Concentration: 2 µM
Setting: whole 60-bp probe, lowest competitor level
Together with: Cbf1 competitor, 0.05 µM
Reading: higher = stronger binding
Constant ends, left off below: … GTCTTGATTCGCTTGACGCTGCTG
Target sequence (chain): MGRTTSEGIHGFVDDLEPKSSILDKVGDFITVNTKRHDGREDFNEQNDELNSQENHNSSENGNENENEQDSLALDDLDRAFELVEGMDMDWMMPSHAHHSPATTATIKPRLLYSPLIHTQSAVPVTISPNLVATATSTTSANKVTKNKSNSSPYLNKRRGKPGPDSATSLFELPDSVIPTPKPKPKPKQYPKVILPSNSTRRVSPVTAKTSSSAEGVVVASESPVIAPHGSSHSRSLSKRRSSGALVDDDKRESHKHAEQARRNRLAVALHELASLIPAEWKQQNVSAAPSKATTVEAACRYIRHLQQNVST
| Strand | fluorescence intensity [a.u.] |
| --- | --- |
| CTTTCCCGATCTTGACTGGTGGGTGTAGCACATTTG | 4640 |
| TTCACCAGCGTTCCACACGTGTCGGCCATATCGTCA | 17200 |
| GTTTAGTTTTCCAATCACGATACTGTTTGGCCATAC | 5230 |
| CTTTCCCGATCTTGTCACTCGACTTTAGCACATTTG | 3980 |
| TATTGGATGAGTATCCACATGGCTTGAACGCAAATG | 9020 |
| AAATTACTAAGTTGGCATGTGGGTGACGCCGTATGA | 11100 |
| GAAGAAAATCGCTCCCGCGTGTCCACTGGACTTTGC | 8690 |
| TTACCTTGGCGCCATCACGTGGCAAAATGGAAGCAA | 18500 |
| ACTTGGTTAAAGACTCACGTGTAGTTTACGGTGGGG | 13900 |
| GGGGATGTTATGAACCATGTGGCTACTTTTATAAGC | 10500 |
| CATACCCAACCTTGTAAGGTGGGTGAAGATATTTGT | 3410 |
| ATTTGGTTATGCTTGTATGCCTCTATTATTTACTTG | 4550 |
| ATCCAATAAGAGGGGCGCGTGTCGGCAGAGATAAGC | 10900 |
| GTCTTGTCTCATTGTCACTTAACTTTCCCCACTTCA | 3960 |
| GGCGTAGACTTGAGAAACATGACAACCACCAGGGAC | 4550 |
| AAATTAGTAACGCATAACGTGTTTTCTGCGACAAGC | 7540 |
| TCTGGATATTCACCACACCTGATTGGGAAGACTCAT | 4920 |
| TGCGCAACAACTTGCAGGGTGGGTGTATGTCTAGAA | 5060 |
| CTTTCCCGATCTTTTCACGTGAGATTAGCACATTTG | 11100 |
| ACCTCAGGGTTTGTGTCTGTGATGGGTTACTCAGCC | 3790 |
| GCATACACATACACATTCGTGCAAACATTCATTTAT | 8090 |
| CGTCCTAGTGATTGTCACTGCACTTCCATGAGGAAG | 4600 |
| AAAGCGGTAATTTTTCACGTGAAATCAAATATCTAT | 8800 |
| TGATTGTCAGTCGTTCGCGTGGGTACAACTTTGGTC | 7690 |
| ACATCAAGACAGCGTCACAGTCAGCTAAACAGAAAA | 3390 |
